Earlier results as cited in several papers.
Lines come from different studies, so protocols differ. ± marks the error that the study gave.

Sequences of proteins named here, by UniProt entry; tags and fusion partners are left off.
UniProt P41145, whole entry: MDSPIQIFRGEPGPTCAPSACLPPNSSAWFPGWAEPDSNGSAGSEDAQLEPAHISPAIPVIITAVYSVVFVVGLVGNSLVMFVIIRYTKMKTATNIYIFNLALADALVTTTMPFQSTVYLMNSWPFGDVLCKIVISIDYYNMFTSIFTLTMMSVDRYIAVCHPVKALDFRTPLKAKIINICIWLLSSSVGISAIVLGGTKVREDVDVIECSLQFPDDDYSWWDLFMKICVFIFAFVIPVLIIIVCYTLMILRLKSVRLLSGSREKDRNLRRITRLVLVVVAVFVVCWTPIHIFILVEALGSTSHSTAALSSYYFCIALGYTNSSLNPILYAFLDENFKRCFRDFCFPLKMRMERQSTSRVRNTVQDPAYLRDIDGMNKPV
UniProt P9WPP7, whole entry: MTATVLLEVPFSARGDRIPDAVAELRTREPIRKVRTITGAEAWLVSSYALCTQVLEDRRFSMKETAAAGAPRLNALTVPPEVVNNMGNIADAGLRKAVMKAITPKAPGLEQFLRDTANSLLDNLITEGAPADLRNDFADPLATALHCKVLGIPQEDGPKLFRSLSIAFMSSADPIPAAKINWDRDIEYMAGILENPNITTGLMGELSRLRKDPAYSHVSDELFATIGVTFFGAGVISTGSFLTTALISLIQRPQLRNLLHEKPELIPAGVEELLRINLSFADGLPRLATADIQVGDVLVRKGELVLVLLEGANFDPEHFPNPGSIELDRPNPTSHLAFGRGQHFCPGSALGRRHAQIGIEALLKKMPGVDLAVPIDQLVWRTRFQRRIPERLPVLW
UniProt Q9Y5N1, whole entry: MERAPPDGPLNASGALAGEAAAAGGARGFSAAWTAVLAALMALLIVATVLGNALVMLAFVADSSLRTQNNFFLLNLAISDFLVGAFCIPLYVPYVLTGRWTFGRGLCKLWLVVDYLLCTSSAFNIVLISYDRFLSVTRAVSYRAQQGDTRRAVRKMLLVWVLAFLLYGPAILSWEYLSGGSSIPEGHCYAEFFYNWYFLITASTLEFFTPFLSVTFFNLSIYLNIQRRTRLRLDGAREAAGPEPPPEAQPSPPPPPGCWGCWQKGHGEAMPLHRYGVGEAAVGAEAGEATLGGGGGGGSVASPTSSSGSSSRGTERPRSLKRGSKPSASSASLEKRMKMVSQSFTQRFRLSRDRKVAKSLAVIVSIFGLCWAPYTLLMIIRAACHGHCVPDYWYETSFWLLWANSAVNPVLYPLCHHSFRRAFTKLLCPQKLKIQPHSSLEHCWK
UniProt P41595, whole entry: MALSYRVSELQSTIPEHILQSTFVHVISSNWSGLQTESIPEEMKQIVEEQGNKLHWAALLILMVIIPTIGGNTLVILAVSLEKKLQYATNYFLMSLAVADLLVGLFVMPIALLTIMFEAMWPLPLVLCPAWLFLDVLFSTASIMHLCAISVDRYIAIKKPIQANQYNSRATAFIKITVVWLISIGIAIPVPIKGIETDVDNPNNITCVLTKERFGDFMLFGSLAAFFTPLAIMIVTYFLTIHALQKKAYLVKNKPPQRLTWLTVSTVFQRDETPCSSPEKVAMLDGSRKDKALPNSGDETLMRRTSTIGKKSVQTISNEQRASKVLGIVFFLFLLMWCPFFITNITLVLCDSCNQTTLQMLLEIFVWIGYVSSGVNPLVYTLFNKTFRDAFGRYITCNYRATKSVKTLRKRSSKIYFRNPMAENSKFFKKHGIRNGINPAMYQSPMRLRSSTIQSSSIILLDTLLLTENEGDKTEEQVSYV
UniProt P40306, whole entry, looked up: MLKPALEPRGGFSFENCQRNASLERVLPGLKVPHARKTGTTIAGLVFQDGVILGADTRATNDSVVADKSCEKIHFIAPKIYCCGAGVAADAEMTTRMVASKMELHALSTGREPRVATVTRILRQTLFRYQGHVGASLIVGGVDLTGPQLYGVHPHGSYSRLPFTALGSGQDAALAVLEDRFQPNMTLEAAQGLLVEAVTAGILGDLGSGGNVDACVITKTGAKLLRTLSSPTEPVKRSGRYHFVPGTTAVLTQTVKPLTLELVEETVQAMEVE
UniProt P49720, whole entry, looked up: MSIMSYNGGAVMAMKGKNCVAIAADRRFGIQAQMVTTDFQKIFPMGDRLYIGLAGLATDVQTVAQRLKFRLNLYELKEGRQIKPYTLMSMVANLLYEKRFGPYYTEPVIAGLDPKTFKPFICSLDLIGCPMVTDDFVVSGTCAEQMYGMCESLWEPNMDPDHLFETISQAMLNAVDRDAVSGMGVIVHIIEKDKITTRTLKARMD

Cc1cc(O)cc(C)c1C[C@H](N)C(=O)N[C@@H]1CCNc2ccc(CC3Cc4ccccc4C3)cc21 — maximal stimulation (OPRK1 (Homo sapiens, UniProt P41145); agonist; relative to: U-69593 at 10 µM): 38%
CCC(=O)Nc1c(NC[C@H](O)[C@H](O)[C@H](O)CO)[nH]c(=O)[nH]c1=O — Kis (Bacillus subtilis lumazine synthase; uncompetitive inhibitor; pH 7.0): 56 ± 12 µM
CCCCCCCCCCCCNC(=O)N[C@H](C(=O)N[C@H]1/C=C/CCNC(=O)/C=C/[C@H](C)NC1=O)C(C)C — Ki (immunoproteasome trypsin-like site; enzyme activity, inhibitor; purified proteasome): 250 nM
CCCCCCCCCCSCC(P(=O)(O)O)P(=O)(O)O — EC50 (Toxoplasma gondii; growth; tachyzoites): 1800 nM
c1cn(Cc2ccc(-c3ccc4c(c3)OCCO4)cc2)cn1 — Kd (cyp121 (Mycobacterium tuberculosis, UniProt P9WPP7)): 5300 ± 600 nM
CNCCNC(=O)c1cc2c([nH]c3c(C)cccc32)c(-c2ccc(Cl)c(Cl)c2)n1 — growth inhibition (Plasmodium falciparum; concentration not given, rescue by IPP supplementation, added: exogenous IPP): no effect
O=c1c2ccc(Oc3ccc(OC(F)(F)F)cc3)cc2[nH]c2cc(F)cc(F)c12 — EC50 ratio (Plasmodium falciparum; parasite growth; Tm90-C2B atovaquone-resistant; relative to: Tm90-C2B over D6 strain): > 100 fold
Ic1ccc(CSCn2ccnc2)cc1 — Ki (HRH3 (Homo sapiens, UniProt Q9Y5N1); binding; added: [3H]-Nα-methylhistamine): > 10000 nM
CN(C)c1ccc(C(=O)NCCCNC(=O)CS)cc1 — full neuroprotection concentration (primary cortical neurons; added: homocysteic acid): 10 µM
Nc1nc(Cl)nc2c1ncn2[C@H]1[C@H](O)[C@H](O)[C@]2(CO)C[C@H]12 — inhibition (HTR2B (Homo sapiens, UniProt P41595); 10 µM, added: [3H]LSD): 50%
O=C(Cc1cccs1)NC(B(O)O)c1cccc(C(=O)O)c1 (stereo not shown) — Ki (Escherichia coli AmpC β-lactamase; inhibitor): 1 nM
O=C(N[C@@H]1CC[C@@]2(O)[C@H]3Cc4ccc(O)c5c4[C@@]2(CCN3CC2CC2)[C@H]1O5)c1ccncc1F — Ki (mu opioid receptor; binding): 0.36 nM
CC(=O)N1CCC[C@@H]1C(=O)N[C@@H](C)C(=O)N[C@@H](Cc1ccccc1)B(O)O — IC50 (Proteasome subunit beta type-10 / Proteasome subunit beta type-3 (Homo sapiens, UniProt P40306+P49720); β2i activity, inhibitor): > 10000 nM
c1ccc2c[n+](CCCCCCCC[n+]3ccc4ccccc4c3)ccc2c1 — IC50 (muscle-type nicotinic acetylcholine receptor; acetylcholine-evoked current, antagonist; added: acetylcholine 100 µM): 1900 ± 200 nM
NCCNCCSc1ccccc1 — short-term stability (urine; 100 µg/mL, 24 h, room temperature): 96.1 ± 2.91 % remaining
O=C(c1ccccc1)N(O)CCCP(=O)(O)O — IC50 (Mycobacterium tuberculosis DXR; enzyme activity, inhibitor): > 25000 nM
CN(C(=O)Cc1ccc(Cl)c(Cl)c1)[C@@H]1CCCC[C@H]1N1CCCC1 — Hill slope (Trypanosoma brucei; parasite growth): 1.3
C=CCN1CC[C@]23c4c5ccc(O)c4O[C@H]2[C@H](NC(=O)c2cccc(I)c2)CC[C@@]3(O)[C@H]1C5 — ED50 (tail flick analgesia; CD1 mice): 0.6 mg/kg
N[C@@H](Cc1ccc(O)cc1)C(=O)N1Cc2ccccc2C[C@H]1CN[C@@H](CC1CCCCC1)C(=O)N[C@@H](Cc1ccccc1)C(=O)O — IC50 (muscle contraction, agonist; guinea pig ileum): inactive

For quick reference, copied from above:
CC(=O)N1CCC[C@@H]1C(=O)N[C@@H](C)C(=O)N[C@@H](Cc1ccccc1)B(O)O — IC50 (Proteasome subunit beta type-10 / Proteasome subunit beta type-3 (Homo sapiens, UniProt P40306+P49720); β2i activity, inhibitor): > 10000 nM
CN(C(=O)Cc1ccc(Cl)c(Cl)c1)[C@@H]1CCCC[C@H]1N1CCCC1 — Hill slope (Trypanosoma brucei; parasite growth): 1.3
O=C(Cc1cccs1)NC(B(O)O)c1cccc(C(=O)O)c1 (stereo not shown) — Ki (Escherichia coli AmpC β-lactamase; inhibitor): 1 nM
